Experimental data gathered from unrelated publications.
Compare with care: the assays were run in different laboratories. “And” joins repeats or separate records; there may be more than shown. ± marks the error that the study gave.

Molecule	assay	system	conditions	how to read	measurement	value
CSCC[C@@H]1NC(=O)[C@H](CC(C)C)NC(=O)[C@H](CCCCN)NC(=O)[C@H](CCC(N)=O)NC(=O)[C@H](CCCNC(=N)N)NC(=O)[C@H](CCCCN)NC(=O)[C@H](CCCNC(=N)N)NC(=O)[C@H](CCC(N)=O)NC(=O)[C@H](C(C)C)NC(=O)[C@@H](NC(=O)[C@@H]2CCCN2C(=O)[C@H](C)NC(=O)[C@H](CC(C)C)NC(=O)[C@H](CC(C)C)NC(=O)[C@H](C)NC(=O)[C@H](CC(C)C)NC(=O)[C@H](CC(C)C)NC(=O)[C@@H](NC(=O)[C@H](C)NC(=O)[C@@H]2CCCN2C(=O)[C@H](CC(C)C)NC(=O)[C@H](CC(C)C)NC(=O)[C@H](C)NC(=O)[C@@H](NC(=O)[C@H](C)NC(=O)[C@H](C)N)C(C)C)C(C)C)CSSC[C@@H](C(=O)O)NC(=O)[C@@H]2CCCN2C1=O	–	Ldlr-/- mice, female, aortic root	subcutaneous pump, dose not given, 4 weeks	baseline: saline	atherosclerotic lesion area	decreased
c1cc2ccc3cccc4ccc(c1)c2c34	inducer	female rat, liver	oral, 10 mg, 24 h, sesame oil vehicle	–	menadione reductase activity	22.9 enzyme units
CSCC[C@H](NC(=O)[C@@H](N)CCSC)C(=O)N[C@@H](CC(C)C)C(=O)N[C@@H](CCCNC(=N)N)C(=O)N[C@@H](CC(=O)O)C(=O)N[C@@H](CCCNC(=N)N)C(=O)N[C@@H](Cc1c[nH]c2ccccc12)C(=O)N[C@@H](CO)C(=O)N[C@@H](CC(C)C)C(=O)O	–	PBMC, human, HSV-1 seropositive, HLA-A*0201+	10 µg/mL, 72 h	–	IFN-γ+ CD8+ T cells	≤ 3.6%
CCOC(=O)C1=C(C)NC(=S)NC1c1ccccc1Cl (centres unmarked)	carotid artery cannulation	male Wistar rats, anaesthetised	0.3 mL, 3 h	–	mean arterial pressure	22.7 ± 0.94 mm Hg
CC[C@H](C)[C@H](NC(=O)[C@H](Cc1ccc(O)cc1)NC(=O)[C@@H](NC(=O)[C@@H]1CCCN1C(=O)[C@H](CCCNC(=N)N)NC(=O)[C@H](CC(N)=O)NC(=O)[C@H](CC(N)=O)NC(=O)[C@H](CCCN)N=C(N(C)C)N(C)C)C(C)C)C(=O)N1CCC[C@H]1C(=O)N[C@@H](CCCNC(=N)N)C(=O)N1CCC[C@H]1C(=O)N[C@@H](CCCNC(=N)N)C(=O)N1CCC[C@H]1C(=O)N1CCC[C@H]1C(=O)N[C@@H](Cc1c[nH]cn1)C(=O)N1CCC[C@H]1C(=O)N[C@@H](CCCNC(=N)N)C(=O)N[C@@H](CC(C)C)C(=O)O	binding, fluorescence polarization	70S ribosome, Escherichia coli BW25113	90 min, pH 7.6, 28 °C, together with: fluorescein-labelled peptide	–	Kd	0.379 ± 0.022 µM
CN1[C@@H]2C[C@@H](OC(=O)[C@H](CO)c3ccccc3)C[C@H]1[C@@H]1O[C@@H]12	–	DBA/2J mice	10 mg/kg, 10 min before challenge, rectal temperature, together with: 3-IC 0.2 mg/kg	baseline: saline	hypothermia	no effect
CC1=C(C(=O)Nc2ccccc2)C(c2ccccc2Br)NC(=S)N1 (centres unmarked)	carotid artery cannulation	male Wistar rats, anaesthetised	0.3 mL, 3 h	–	mean arterial pressure	21.3 ± 1.34 mm Hg
Cc1ncc(COCc2cn(Cc3ccccc3C(F)(F)F)nn2)c(CO)c1O	Zn2+ chelation	–	100 µM, 30 min, 37 °C, together with: Zn2+ 100 µM	–	absorbance change	0%
rat urocortin I	item: CREB phospho-Ser133	hippocampal pyramidal neurons, Sprague-Dawley rat pups	40 nM, 15 min	–	responding neurons	~85%
CCCCCOc1ccc(-c2ccc(-c3ccc(C(=O)N[C@H]4C[C@@H](O)[C@@H](O)NC(=O)[C@@H]5[C@@H](O)[C@@H](C)CN5C(=O)[C@H]([C@@H](C)O)NC(=O)[C@H]([C@H](O)[C@@H](O)c5ccc(O)cc5)NC(=O)[C@@H]5C[C@@H](O)CN5C(=O)[C@H]([C@@H](C)O)NC4=O)cc3)cc2)cc1	–	patients, invasive candidiasis	dose not given, end of IV therapy	–	global response failure	12.5%
CC1=C(C(=O)Nc2ccc(F)cc2)C(c2ccccc2C#N)NC(=S)N1 (centres unmarked)	carotid artery cannulation	male Wistar rats, anaesthetised	0.3 mL, 3 h	–	mean arterial pressure	22.4 ± 0.96 mm Hg
Cc1ccc2cc3c(ccc4ccccc43)c3c2c1CC3	inducer	female rat, liver	oral, 1 mg, 24 h, sesame oil vehicle	–	menadione reductase activity	51.2 enzyme units
CCN[C@@H]1C[C@H](N)[C@@H](O[C@H]2OC(CN)=CC[C@H]2N)[C@H](O)[C@H]1O[C@H]1OC[C@](C)(O)[C@H](NC)[C@H]1O	luciferase synthesis, inhibitor, coupled transcription-translation	M. smegmatis 70S ribosomes, Leishmania/Trypanosoma hybrid	60 min, 37 °C	–	IC50	127 µM
TYIATGALL	IFN-γ release, ELISPOT	peptide, splenocytes, BALB/c mouse immunised	–	–	EC50	< 0.001 nM
Cc1cc(NC(=O)[C@H](O)c2cc(F)cc(F)c2)ccc1-c1cnc(N)c(C(=O)NC(C)C)c1	–	MMTV-HER2 female mice	dose not given, over 2 weeks	–	tumours in complete cytostasis	43%
Cc1[nH]c(/C=C2\C(=O)Nc3ccc(F)cc32)c(C)c1C(=O)NCCN1CCCC1	–	dogs with lung metastatic osteosarcoma	dose not given, single agent	–	median progression-free survival	57 days
CNC(C)C1CCC(N)C(OC2C(N)CC(N)C(OC3OCC(C)(O)C(NC)C3O)C2O)O1 (centres unmarked)	[14C]-phenylalanine incorporation, inhibitor, (UUU)12-directed cell-free translation	M. smegmatis 70S ribosomes, Leishmania/Trypanosoma hybrid decoding site	60 min, 37 °C	–	IC50	> 500 µM
CC(=O)N[C@@H](CC(C)C)C(=O)N1CCC[C@H]1C(=O)N[C@@H](Cc1ccc(O)cc1)C(=O)N1CCC[C@H]1C(=O)N[C@@H](CCCCN)C(N)=O	DSC	SOPC/cholesterol 7/3 bilayers	15 mol%, pH 7.40	–	transition enthalpy	1.1 kcal/mol

Molecule	assay	system	conditions	how to read	measurement	value
C[C@@H]1O[C@@H](O[C@H]2C[C@@H](O)[C@]3(CO)[C@H]4[C@H](O)C[C@]5(C)[C@@H](C6COC(=O)C6)CC[C@]5(O)[C@@H]4CC[C@]3(O)C2)[C@H](O)[C@H](O)[C@H]1O (some centres unmarked)	Na/K pump current, inhibitor, whole-cell patch clamp	Cavia porcellus	pH 7.4, 36 °C, high-affinity component	–	Kd	0.75 µM
Oc1cc2ccccc2c2ccccc12	–	zebrafish embryo	–	–	EC50	500 to 5500 nM
CC#CCn1c(N2CCC[C@@H](N)C2)nc2c1c(=O)n(Cc1nc(C)c3ccccc3n1)c(=O)n2C	oral glucose tolerance test	HFD/STZ type 2 diabetic rat	oral, 10 mg/kg, together with: glucose 1 g/kg	–	glucose AUC	498 ± 55.1 mg·min/dL
atrial natriuretic peptide	–	rat high-fat streptozotocin diabetes	subcutaneous pump, 2 pmol/kg/min, 6 weeks, together with: sacubitril 18 mg/kg/day oral	–	ejection fraction	~85%
NC[C@H]1O[C@H](O[C@H]2[C@H](O)[C@@H](O[C@H]3O[C@H](CO)[C@@H](O)[C@H](N)[C@H]3O)[C@H](N)C[C@@H]2N)[C@H](N)C[C@@H]1O	[14C]-phenylalanine incorporation, inhibitor, (UUU)12-directed cell-free translation	M. smegmatis 70S ribosomes, Leishmania/Trypanosoma hybrid decoding site	60 min, 37 °C	–	IC50	> 500 µM
O=C(CCCCCCC(=O)Nc1ccccc1)NO	–	human, liver metastasis biopsy	oral, 1700 mg once daily	baseline: β-actin	thymidylate synthase mRNA level	0.13 and 0.05
CSCC[C@H](NC(=O)[C@H](CC(C)C)NC(=O)[C@H](C)N)C(=O)NCC(=O)N[C@@H](C)C(=O)N[C@H](C(=O)N[C@H](C(=O)N[C@@H](CO)C(=O)N[C@@H](CC(C)C)C(=O)O)[C@@H](C)O)C(C)C	–	PBMC, human, HSV-1 seropositive, HLA-A*0201+	10 µg/mL, 72 h	–	IFN-γ+ CD8+ T cells	≤ 4%
CC[C@H](C)[C@H](NC(=O)CNC(=O)[C@H](Cc1c[nH]c2ccccc12)NC(=O)CNC(C)=O)C(=O)N[C@@H](CCCCN)C(N)=O	DSC	SOPC/cholesterol 6/4 bilayers	10 mol%, pH 7.40	–	transition enthalpy	0.7 kcal/mol
Cl.Cl.Cl.NCCCNCCCCNCCCNC(=O)Cc1cccc2ccccc12	whole-cell voltage clamp	nucleus accumbens core D2-MSNs, mouse	100 µM, together with: D1-MSN 50 Hz stimulation	baseline: baseline	EPSC amplitude	88 ± 2.67%
CC(=O)N[C@@H](CC(C)C)C(=O)NCC(=O)N[C@@H](Cc1ccc(O)cc1)C(=O)NCC(=O)N[C@@H](CCCCN)C(N)=O	DSC	SOPC/cholesterol 6/4 bilayers	5 mol%, pH 7.40	–	transition enthalpy	0.2 kcal/mol
COC(=O)C1=C(C)NC(C)=C(C(=O)OC)C1c1ccccc1[N+](=O)[O-]	carotid artery cannulation	male Wistar rats, anaesthetised	0.3 mL, 3 h	–	mean arterial pressure	20.8 ± 0.58 mm Hg
c1ccc2c(c1)cc1ccc3cccc4ccc2c1c34	adrenal haemorrhage prevention	rat	oral, together with: 7,12-DMBA 5 mg i.v.	–	minimal protective dose	0.5 mg
C=CC=O	reaction with cysteine thiol	–	pH 7.4, corrected for thiolate fraction	–	log k	3.42
acyline	–	human men	sc, 300 µg/kg, 24 h	–	serum oestradiol	6.6 ± 3.3 pg/mL
C[C@@H]1NC(C)(C)CO[C@@]1(O)c1cccc(Br)c1	nicotine antinociception blockade, antagonist, tail-flick test	mouse	15 min pretreatment, together with: nicotine 2.5 mg/kg subcutaneous	–	ED50	0.16 mg/kg
N=C(N)NCCc1ccc([18F])c(O)c1	–	rat, isolated working heart	10 min infusion, together with: 54 µM corticosterone	–	neuronal uptake rate	0.68 mL/min/g wet weight
O=c1c2ccccc2[nH]c2nc3nc(-c4ccccc4)cc(-c4ccc5ccccc5n4)c3c(=O)n12	DPPH scavenging, absorbance	–	30 min	–	IC50	127 µM
